Assay results pooled from the literature.
Each numbered part is a random draw from the data of one study; scales do not carry over between parts. Substitutions count along the parent as printed.

Block 1 — technique: RNA Bind-n-Seq; molecule type: RNA; matrix: in vitro; concentration: 200 nM; setting: whole 134-nt RNA, ends assumed; with: 150 mM LiCl; reference: input library; direction: higher = stronger binding; library: 7-deaza-guanosine replaces G
Target: Fragile X messenger ribonucleoprotein 1, C-terminal low-complexity region (Fmr1, Mus musculus, UniProt P35922)
Strand	log2 enrichment
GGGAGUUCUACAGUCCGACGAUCUAACUUUAGAGGAGGAUCUGAUGGAUAUGGCAGUGGACGUGGAUUUGGGGAUGGCUAUAAUGCGUAUGGAGGAGGACCUGGAGGUGGCAAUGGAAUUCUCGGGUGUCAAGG	0.804
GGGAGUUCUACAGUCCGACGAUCUAACUUUAGAGGAGGAUCUGAUGGAUAUGGCAGAGGACGUGGAUUUGGGGAUGGCUAUAAUGGGUAUGGAGGAGGACCUGGAGGUGGCAAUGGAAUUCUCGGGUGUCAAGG	0.424
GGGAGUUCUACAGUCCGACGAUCCUCAAGUCCUGUGCUACACAUCGUAUGUACCGAAUCGGGCCGGCCGGGGCCGGAAAGUAUUAUGUUACGCCGUUCGGAUCUGCACUUCCAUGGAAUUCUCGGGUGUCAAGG	1.41
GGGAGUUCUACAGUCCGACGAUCCAAGUCCUGUGCUACACAUCGUAUGUACCGAAUCGGGCCCGGCCCGGGCCCGGGGAAAGUAUUAUGUUACGCCGUUCGGAUCUGCACUUCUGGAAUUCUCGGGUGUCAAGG	-3.2
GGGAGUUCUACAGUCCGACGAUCUAACUUUAGAGGAGGAUCUGAUGGAUAUGGCGGUGGACGUGGAUUUGGGGAUGGCUAUAAUGGGUAUGGAGGAGGACCUGGAGGUGGCAAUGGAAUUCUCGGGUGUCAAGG	0.368
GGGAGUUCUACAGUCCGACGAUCAGUCCUGUGCUACACAUCGUAUGUACCGAAUCGGCCCCCGGGCCCCCGGGCCCCCGGAAAGUAUUAUGUUACGCCGUUCGGAUCUGCACUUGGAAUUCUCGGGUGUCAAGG	-2.23
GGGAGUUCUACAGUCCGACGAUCCUCAAGUCCUGUGCUACACAUCGUAUGUACCGAAUCGGGUUGGGUUGGGGUUGGAAAGUAUUAUGUUACGCCGUUCGGAUCUGCACUUCCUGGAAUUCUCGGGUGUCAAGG	-0.366
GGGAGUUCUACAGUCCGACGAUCCGGCAGUAGCAGCAGCGCCGGGUCCCGUGCGGAGGUGCUCCUCGCAGAGUUGUUUCUCGAGCAGCGGCAGUUCUCACUACAGCGCCAGGAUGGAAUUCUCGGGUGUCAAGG	-1.98

Block 2 — technique: protein-binding microarray; molecule type: double-stranded DNA, one strand shown; matrix: in vitro; concentration: not given; direction: higher = stronger binding
Target: Hepatocyte nuclear factor 3-beta, forkhead domain (FOXA2, Homo sapiens, UniProt Q9Y261, residues 142-269)
Setting: k-mer, scored over probes, only values ≥0.25
Residues (chain): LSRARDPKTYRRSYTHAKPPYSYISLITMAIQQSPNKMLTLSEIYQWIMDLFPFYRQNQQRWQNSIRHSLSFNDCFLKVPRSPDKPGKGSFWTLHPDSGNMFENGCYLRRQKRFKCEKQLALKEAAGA
Strand	E-score
AGATATCA	0.305
TAGTTATA	0.316
CATAACAA	0.35
ACACATAC	0.318
ACCAACTA	0.256
AATACACT	0.368
CATTATAC	0.314
ACGTAACA	0.288

Block 3 — technique: DHFR PCA, deep sequencing; matrix: yeast; with: (+)-ABA 0.032 µM; reference: wild-type fitted maximum; direction: higher = stronger binding
Target: ABI1, truncated, D143A, DHFR fusion (Arabidopsis thaliana)
Setting: methotrexate growth selection, single substitutions
Parent: PYL1, truncated, DHFR fusion (Arabidopsis thaliana); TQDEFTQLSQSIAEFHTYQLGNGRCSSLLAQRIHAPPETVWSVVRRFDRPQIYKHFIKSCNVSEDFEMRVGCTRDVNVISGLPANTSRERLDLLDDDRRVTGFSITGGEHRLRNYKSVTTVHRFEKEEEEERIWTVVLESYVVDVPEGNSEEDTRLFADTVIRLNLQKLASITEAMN
Substitution	relative binding score
R46V	-6.76%
E147R	1.4%
A13Q	29.3%
L156E	-0.596%
S42T	5.47%
L91D	-10.1%
A170G	-2.06%
A84G	39.5%

Mixed results
SMILES	system	conditions	quantity	result
Brc1ccc(-c2c[nH]c(CNc3nncn3-c3ccccc3)n2)cc1	mouse, microsomes or S9	2 µM, 0.5 h	remaining compound	8.99%

Excerpt of the above (block 2):
Strand	E-score
CATAACAA	0.35
ACACATAC	0.318
ACCAACTA	0.256
AATACACT	0.368
